# Measurements from different studies.
# A part holds a random share of what one study measured.

# Series 1
# Target: RING finger protein unkempt homolog, zinc fingers 1-6, GST-SBP tag (UNK, Homo sapiens, UniProt Q9C0B0, residues 30-357)
# Chain of UniProt Q9C0B0 (30-357, looked up): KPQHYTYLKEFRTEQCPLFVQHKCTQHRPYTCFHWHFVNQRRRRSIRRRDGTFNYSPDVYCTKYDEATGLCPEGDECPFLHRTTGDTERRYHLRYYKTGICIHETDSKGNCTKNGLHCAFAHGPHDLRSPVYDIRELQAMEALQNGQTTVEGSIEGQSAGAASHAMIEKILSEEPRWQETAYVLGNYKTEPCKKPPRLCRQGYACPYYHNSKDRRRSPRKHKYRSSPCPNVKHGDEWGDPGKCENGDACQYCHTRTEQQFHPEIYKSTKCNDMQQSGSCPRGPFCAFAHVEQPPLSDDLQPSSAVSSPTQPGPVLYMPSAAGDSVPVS
# Technique: RNA Bind-n-Seq
# Molecule type: RNA
# Medium: in vitro
# Concentration: not given
# Notes: RNA with constant flanks, ends assumed
# Reference: input RNA pool
# Reading: higher = stronger binding
Oligonucleotide,bound/input enrichment [ratio]
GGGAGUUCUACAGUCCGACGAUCACCAUUGUUGACACCGUGGGAUUUGGAGACCAGAUAAAUAAAGAUGACAGCUAUAAGCCGACCGCCGAAUAUAUUGAUGCCCAGUUCGAGGCCUACCUGCAAGAGGAAUUGAAGAUUAAACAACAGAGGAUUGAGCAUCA,0.462
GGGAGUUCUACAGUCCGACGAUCAGCAAAAAAAAAAAAAAAAAAAAAAAAAAAAAGAGUCUCACUGUGCAGCUCAGCUUGUCUUUCCGUGUGUAGGCCUGGUUGUGAUCUUCCCAUCUCCUGAGAGCUGAGAUUACCAGUGUGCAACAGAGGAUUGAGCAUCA,0.44
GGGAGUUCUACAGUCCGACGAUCUGUCCAGGUUGCUACAAGAUCACCACGGUUUUCAGCCAUGCUCAGACAGUGGUUCUUUGUGCCGGUUGUUCAACAGUGUUGUGCCAGCCUACAGGAGGAAAGGCCAGACUCACAGAAGGGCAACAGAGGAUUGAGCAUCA,0.141
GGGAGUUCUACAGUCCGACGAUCGUAUGCCAGGGAACACACAUUCUCUUUCGAGAAUUCAGCUUCGUCCAAGCCACCCCCCACAACCGGGUAUCAUUUUUACGGGCCUUCUGGAGAUGCUUCCGAACUGUGGGCAAAAAUGGCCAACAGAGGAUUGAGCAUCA,0.624
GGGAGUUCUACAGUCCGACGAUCCUUUAAGUCUCUGAGAGGAGGCUGAAGAGUGUUGGGGCUCCUGGGACAUACAUGUAGAGUUCCCCGCAAAGUGGGCGCCUUUCUCGUCCACAGCAUUUAAAGAGAGGAAGGAGAACCAUCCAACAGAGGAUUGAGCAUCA,0.263
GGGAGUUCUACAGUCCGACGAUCAGAUCUCAUAAAGAGAGCUCACGGUCCAGGUCAUCUCACAAAGAUUCUCCUAGAGAUGUCCGCAAAAAAGCCAAAAGAUCACCAUCUGGUUCAAGGACACCUAAAAGGUCUAGGCGAUCACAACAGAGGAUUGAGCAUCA,0.111
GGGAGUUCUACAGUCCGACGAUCUUGAUCAGGGAAGACUUAGGGUUCAGAUUUAUAUCUGAGCAGGUCAGUCACCACCCUCCUAUCCGCGCAUUUUAUUCAGAAGGUCUCAAUCAAGACUUCAGGUUCCACGGUUCCAUCUACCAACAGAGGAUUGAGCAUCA,0.193
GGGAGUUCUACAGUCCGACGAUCCAUCAGCUGUCUACACCACAAAAAGCAAGUCAACACCAAGUUCUGUUUUUGUUAUCAGAUGCCGCACAUGCUAAGAAUCCAACCCAUUCCAUUAAAAAAGUACCUACCUCUGCUUUAGUUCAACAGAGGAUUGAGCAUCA,0.409
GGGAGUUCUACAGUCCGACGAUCAAAGAUCCUAAUAUGAAAGGUGCAAUGCUUACCAACACUGGAAAAUAUGCAAUACCAACUACCGAUGCAGAAGCAUAUGCAAUUGGGAAGAAAGAGAAACCUCCCUUCUUACCAGAGGAGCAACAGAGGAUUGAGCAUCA,0.208
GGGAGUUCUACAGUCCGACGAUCUCCACCAGUGAUGCCUUCUGGAAAUCACCAAAUUCCUCGUCGAGGAUUUCACCCCCCGUGUUGUUUUCCAAUUUGCCUGUGAACCAUAAAAUGGAGCACAAUAAUAAUGACACUCAACAGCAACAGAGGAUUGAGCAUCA,0.139
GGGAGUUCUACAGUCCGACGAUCUAACCACAUCAAGAUGGUUGGGAAGCUGAAGCAGAACUUACUCUUGGCGUGUCUGGUGAUCCGUUCUGUGACCGUGUUUUACCUGGGCCAGCAUGCCAUGGAGUGCCAUCACCGAAUAGACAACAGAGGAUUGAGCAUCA,0.135

# Series 2
# Target: PABPC1L2, full length, GST fusion (mouse, UniProt A0ABA7IW68)
# Technique: RNAcompete
# Molecule type: RNA
# Medium: in vitro
# Concentration: 20 nM
# Notes: 7-mer, probes averaged, single round
# Reference: mean of 7-mers
# Reading: higher = stronger binding
# Target sequence (chain): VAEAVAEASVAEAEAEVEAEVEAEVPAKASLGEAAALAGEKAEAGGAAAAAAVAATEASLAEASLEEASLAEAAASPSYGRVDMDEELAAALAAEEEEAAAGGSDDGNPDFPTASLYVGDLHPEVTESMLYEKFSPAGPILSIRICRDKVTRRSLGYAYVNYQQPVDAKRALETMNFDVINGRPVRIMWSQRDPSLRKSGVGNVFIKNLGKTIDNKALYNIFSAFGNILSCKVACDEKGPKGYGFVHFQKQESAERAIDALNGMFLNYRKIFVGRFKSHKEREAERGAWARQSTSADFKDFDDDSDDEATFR
Oligonucleotide,7-mer Z-score
AGAGUGG,-0.0156
CUCGAAC,-0.376
GUCUGGG,0.0334
GGUACCC,-0.349
UCGCGAC,-0.307
CUAGCCU,-0.4
AUGAAAU,0.144
AGAGAGC,0.00617
AUGGGGU,0.289
AUCCACA,-0.0699
UCACCCA,-0.353
CUAUCGU,-0.353
CGGGGCC,-0.151
CGGCGAC,0.066
CUGUCAC,-0.204
UGUGAUC,-0.286
ACUCGGU,-0.191
AUCGGCA,0.0388
GUAUGAC,-0.17
CUGUACG,-0.278
CUGUGCC,-0.351
UUUUCUG,-0.371

# Series 3
# Target: RNA binding protein fox-1 homolog 2, RRM domain, GST-SBP tag (RBFOX2, Homo sapiens, UniProt O43251-10, residues 100-194)
# Technique: RNA Bind-n-Seq
# Molecule type: RNA
# Medium: in vitro
# Concentration: 365 nM
# Notes: natural RNA segment, single round, ends assumed
# Reference: no-protein control
# Reading: higher = stronger binding
# Target sequence (chain): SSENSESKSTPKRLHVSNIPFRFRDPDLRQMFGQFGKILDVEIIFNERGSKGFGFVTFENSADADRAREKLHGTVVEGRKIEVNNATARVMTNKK
Oligonucleotide,RBNS enrichment (R)
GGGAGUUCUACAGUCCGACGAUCAGAAGUUGGGGGGGAUGUGAAAAUAAUUUUAUGAGGUUGUCUAAAAUAAAGAGUAGUUUCUUAUCCUGGUGUUUUCAGUAUUUUUUGCAUUUCUGUACAGCCAAUAUCACUGGAAUUCUCGGGUGCCAA,1.71
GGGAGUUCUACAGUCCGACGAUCGCAGAGGUGGUCUCUAGGGGGAGGCUGGUGCCAUUCCCUCCUGCCUGGCUCAGACCUCUUAGACUGGUCUCUCUUCCUCAGCUGCUGGGUUCUUUGUCUGCCCAGCUAUUUGGAAUUCUCGGGUGCCAA,0.404
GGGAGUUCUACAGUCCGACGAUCGUGCUGAGCGGGCAAGCAAUAAAACAAAUCAUACCAAAAAGCCACAUUGCUCUCUCCUAAGCCCCAACCCCACUCCACUCCUGUGGCCAGGGGUCCAAACAGAAAAUAACUGGAAUUCUCGGGUGCCAA,0.314
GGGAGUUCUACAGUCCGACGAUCUAUGCAACGUAAGAUGUCCUCCUUGAUAGAAGUCUUAGCUCCUGUGUUACAAGGGAGAACUCAUUUGAGAUCAGUCUGUUGGCAUUGCAAUGAAGUGCUUUGUAUCAGGAUGGAAUUCUCGGGUGCCAA,0.962
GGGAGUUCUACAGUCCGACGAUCGUUCCCAAGAGAUCGGCAACCUUUUUGUCCCUUUCUCAUAAGAAAGGGACACUCCUACAGGUGAGAGUGUAUACCUUACUCUCUCAGAUAAGUGGCUGGACUUAUCUUGUUGGAAUUCUCGGGUGCCAA,0.254
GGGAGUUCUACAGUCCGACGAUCAUAAACAUGUUAAAUGCAGGAUAUUUCUGCUUGGGGCAUCUUUGUGAUUUGUACUUUCCUACAAUUUAGCACUUUAACUGACAAUGAUGGGGUUUAAACAUUUGACAGCCUGGAAUUCUCGGGUGCCAA,0.55
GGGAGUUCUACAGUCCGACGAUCUAUUCGAUCUGUGCCAUGACUCUUCUGAAUGUUUGGACAGGUUAGAGUUGGGGACCCCUGUUGGCCACUUGUUGACCUCUCAUAGUGGUGCUUGGGCCAGGUCUUCUCAAUGGAAUUCUCGGGUGCCAA,0.684
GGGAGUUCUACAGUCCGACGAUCUUUGAAAGUAAUUGACAGAAAACUACAAACACGUAGGAUGCCCUGCGCCUCAGCAGCACCCACCCCAGAGCCUCUUGGCAUGCCCAGCUUUCUUUUCAGUACAAGUAUUUUGGAAUUCUCGGGUGCCAA,0.91
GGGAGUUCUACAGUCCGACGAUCGUCAGGUCUGUGGCUCUGAGGCCUUCACUUAGAGCUGUCAGUGUGAUUUCCAGGAUGAGUCAGGGUGUGCUGGGCCCUCCAGGAUUUGAGAGAGGGAGAGAAGGCCCUUGUGGAAUUCUCGGGUGCCAA,0.874
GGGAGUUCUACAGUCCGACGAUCGGGAGAGGCUGAGGACUUAAAAUAUUCCUGCAUUUGUGAAAUGAUGGUGAAAGCACUGCUGCCCAGCCUCCAAGCUCCAUCUCCACUCCAGAUUUUUUACAGCUGCCUGCUGGAAUUCUCGGGUGCCAA,0.668
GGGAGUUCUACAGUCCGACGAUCAAAGCAGCAAUAAAACUGCUCCUACCCACAGCCACGGAUCUUCCAAACCUAGCCCCGCUCUCAGGCCUCUACCCAGCAGCCAGAACACAGCAAGAGUUGAGGUGAAGCAAUGGAAUUCUCGGGUGCCAA,0.341
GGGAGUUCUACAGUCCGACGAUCCAGGGAUUGUGCUUCAUUCCAAUCUAUUGCUUCACCAUGGCCUUAUGAGGCAGGUGAGAGAUGUUUGAAUUUUUCUCUUCCUUUUAGUAUUCUUAGUUGUUCAGUUGCCAUGGAAUUCUCGGGUGCCAA,9.43

# Series 4
# Target: Histone acetyltransferase KAT6A, winged helix 2, GST fusion (KAT6A, Homo sapiens, UniProt Q92794, residues 85-181)
# Technique: protein binding microarray
# Molecule type: double-stranded DNA, one strand shown
# Medium: in vitro
# Concentration: not given
# Notes: 8-mer, flanks averaged, mean of 2 arrays, mostly near background
# Reference: not given
# Reading: higher = stronger binding
# Residues (chain): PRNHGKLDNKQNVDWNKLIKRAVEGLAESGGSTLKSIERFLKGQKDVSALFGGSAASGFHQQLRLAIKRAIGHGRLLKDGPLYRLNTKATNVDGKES
Oligonucleotide,E-score
CAGGGGGC,0.256
TCGCGCGA,0.0502
GACGTGAC,-0.126
CACACTCC,-0.131
CCGAAACG,0.173
CACAAGAA,0.0899
AGACGGCG,0.137
GAATGCCA,0.154
AGGGGCTG,0.0474
CCCGTGCA,-0.0205
ACGGCACT,0.069
CGAACTAC,-0.0583
ACTGGGCC,0.129
ATATTCCA,0.113
AATTAACT,-0.102
AATAATAT,0.128
GTTCAACA,0.101
AGGACCAA,-0.0697
ACGTCCTA,-0.208
ATCCGGAG,0.211
CGGGCAGA,0.135
AAGCCTCG,0.0569
AGACATGG,-0.102

# A few entries again (series 4):
Oligonucleotide,E-score
AATTAACT,-0.102
AATAATAT,0.128
GTTCAACA,0.101
AGGACCAA,-0.0697
ACGTCCTA,-0.208
ATCCGGAG,0.211
CGGGCAGA,0.135
AAGCCTCG,0.0569
